Results pooled from the literature.
Each line is one published result; not all experiments were run side by side. Numbers after ± are the reported error.

CCN1/C(=C/C=C2\CCCC(/C=C/C3=[N+](CC)c4ccccc4C3(C)C)=C2NCCCCCCCCN2CCC(Nc3nc4ccccc4n3Cc3ccc(F)cc3)CC2)C(C)(C)c2ccccc21 — IC50 (U-87 MG; cell growth or viability, CCK-8; 72 h): ~1 µM
CCCCCCCCCCOc1c(O)cc(C(=O)O[C@@H]2Cc3c(O)cc(O)cc3O[C@@H]2c2cc(O)c(O)c(O)c2)cc1O — IC50 (A-431; cell growth or viability, CCK-8; 24 h): 100 µM
CCCCC(CC)CNC(=N)NC(=N)NCCCCCCCCNC(=N)NC(=N)NCC(CC)CCCC (stereo not shown) — IC50 (NCI-H1299; cell growth or viability, SRB; 72 h): 0.8 µM
CCC(C(=O)O)C1CCC(C)C(C(C)C(O)C(C)C(=O)C(CC)C2OC3(C=CC(NCc4cn(COC(=O)C(C)(C)C)nn4)C4(CCC(C)(C5CCC(O)(CC)C(C)O5)O4)O3)C(C)CC2C)O1 (stereo not shown) — IC50 (HMLER CD24high/CD44low; cell viability, CellTiter-Blue; 72 h): 10.3 ± 1 µM
CCCC(=O)N1CCN(c2ccc(NC(=O)c3ccc([N+](=O)[O-])o3)cc2Cl)CC1 — IC50 (LDR; cell viability, MTS; 4 days): 1 µM
COc1cc2c(cc1C(C)=O)CCC1C(C)(C)c3nc(C)ncc3C[C@]21C (mixture of isomers) — IC50 (TM3; cell growth or viability, SRB; 24 h): > 100 µM
N=C(N)NCCC[C@H](N)C(=O)N[C@@H](CC(=O)N[C@@H](CC(=O)O)C(=O)O)c1cccc2ccccc12 — IC50 (BT-474 (HER2-overexpressing)): > 50 µM
NC(=S)c1ccc(O)cc1 — IC50 (K562/Adr; cell growth or viability, CCK-8; 72 h): > 200 µM
N=C(N/N=C/c1cccs1)N/N=C/c1cccs1 — IC50 (IMR-90; cell growth or viability, crystal violet; 72 h): 47.9 µM
CN(C)CCN1CCN(c2ccc(Oc3ccc(F)cc3F)c(-c3cn(C)c(=O)c4[nH]ccc34)c2)S1(=O)=O — IC50 (Light II cells; GLI reporter gene, inhibitor; Hedgehog pathway): 0.0719 ± 0.00543 µM
Oc1ccc(-c2csc(Cc3ccccc3)n2)c(O)c1 — IC50 (LNCaP; cell growth; 72 h): no inhibition
CCCCCCCCCCCCCCCC(=O)O[C@H]1[C@H](C)O[C@@H](O[C@H]2[C@H](N(C)C)[C@@H](O)[C@H](O[C@H]3[C@@H](CC=O)C[C@@H](C)[C@@H](O[C@H]4CC[C@H](N(C)C)[C@@H](C)O4)/C=C/C=C/C[C@@H](C)OC(=O)C[C@@H](O)[C@@H]3OC)O[C@@H]2C)C[C@@]1(C)O — IC50 (HGC-27; cell growth or viability, CCK-8; 72 h): 4.2 µM
Cc1ccc2nc(NC(=O)Cn3cc(COc4ccc(/C=N/Nc5cc([N+](=O)[O-])cc([N+](=O)[O-])c5)cc4)nn3)sc2c1 — IC50 (normal dermal fibroblasts; cell viability, MTT; 48 h): > 500 µM
CO[C@@H]1[C@@H](O[C@@H]2O[C@H](C)[C@@H](O[C@H]3C[C@@](C)(O)[C@@H](OC(=O)CC(C)C)[C@H](C)O3)[C@H](N(C)C)[C@H]2O)[C@@H](CC=O)C[C@@H](C)[C@@H](O[C@H]2CC[C@H](N(C)C)[C@@H](C)O2)/C=C/C=C/C[C@@H](C)OC(=O)C[C@H]1O — IC50 (HGC-27; cell growth or viability, CCK-8; 72 h): 8.08 µM
N[C@@H](CCC(=O)N[C@@H](CS[Se]Cc1ccc(-c2cc(C(F)(F)F)nn2-c2ccc(S(N)(=O)=O)cc2)cc1)C(=O)NCC(=O)O)C(=O)O — IC50 (1205 Lu melanoma cells; cell viability, MTS; 72 h): 10.6 ± 2.6 µM
CCCC(CCC)C(=O)[O][Pt]([NH2])([NH2])([Cl])([Cl])[O]C(=O)C(C)c1ccc(CC(C)C)cc1 (stereo not shown) — IC50 (PSN1 3D spheroids): 0.93 ± 0.46 µM
Cc1c(C)n(-c2c(C(C)C)cccc2C(C)C)c(=[Se])n1-c1c(C(C)C)cccc1C(C)C.[Cl][Ag] — IC50 (A-431; cell growth or viability, MTT; 72 h): 0.9 µM
CCCCCCCCCCCCCCCCC1CC(=O)NCCCN(C)CCCCN(C)CCCN1C (stereo not shown) — IC50 (SK-MEL; cell growth or viability, neutral red; 48 h): 1.9 µg/mL
CC1(C)CCC(CN2CCN(c3ccc(C(=O)NS(=O)(=O)c4ccc(NCC5COCCO5)c([N+](=O)[O-])c4)c(N4CCCOc5nc6[nH]ccc6cc54)c3)CC2)=C(c2ccc(Cl)cc2)C1 (stereo not shown) — IC50 (LOUCY; cell growth or viability, ATP luminescence; 24 h): 0.0055 µM
N=C(S)N/N=C/c1ncc(C(F)(F)F)cc1Cl — IC50 (HCC4017; cell growth or viability, MTS; 96 h): 10 µM
N=C(N/N=C/c1ccc[nH]1)N/N=C/c1ccc[nH]1 — IC50 (IMR-90; cell growth or viability, crystal violet; 72 h): 21.6 µM
CO[C@@H]1[C@@H](O[C@@H]2O[C@H](C)[C@@H](O[C@H]3C[C@@](C)(O)[C@@H](OC(=O)CN4CCOCC4)[C@H](C)O3)[C@H](N(C)C)[C@H]2O)[C@@H](CC=O)C[C@@H](C)[C@@H](O[C@H]2CC[C@H](N(C)C)[C@@H](C)O2)/C=C/C=C/C[C@@H](C)OC(=O)C[C@H]1O — IC50 (HGC-27; cell growth or viability, CCK-8; 72 h): 5.78 µM
CCN(CC)CCO/N=C1/C=C2CCC3C(CC[C@]4(C)/C(=C/c5ccccn5)CCC34)[C@@]2(C)CC1 (stereo partly shown) — IC50 (G-361; cell growth or viability, resazurin; 72 h): 3.8 µM
CN(C)/C=C/C(=O)c1ccc2[nH]c3ncc(-c4ccc(N5CCN(C)CC5)cc4)cc3c2c1 — IC50 (SUP-M2; cell growth or viability): 0.54 µM
C=C(F)C(=O)Nc1cnn2ccc(-c3ccc(C4CCCCC4)cc3)nc12 — IC50 (NCI-H226 (NF2-deficient); cell growth, inhibitor; 120 h): 0.261 µM
COc1cc(NC(=O)c2ccc(Cl)cc2Cl)ccc1C(=O)Nc1ccc(Cl)c(-c2nc3ccccc3[nH]2)c1 — IC50 (NIH3T3-Gli-Luc; Hedgehog signalling, Gli-luciferase reporter; with: Shh-conditioned medium): 0.53 ± 0.05 µM
Cc1ccc(C(C)C)c(OCc2ccc(C(=O)N/N=C/c3cccc(O)c3O)cc2)c1 — IC50 (LDR; cell viability, MTS; 4 days): 1.5 µM
CC(=O)[O-].Nc1ccc(C([O-])=NN=Cc2ccc(OCC(=O)Nc3ccc(Cl)cc3)cc2)cc1.O.O.O.[Cu+2] — IC50 (WISH; cell growth or viability, MTT; 24 h): 43.3 µg/mL
CN(C)c1cc[n+](Cc2cccc(C[n+]3ccc(N(C)C)cc3)c2)cc1 — IC50 (3T3-L1; cell viability, MTT; 72 h): 61.96 ± 0.52 µM
Cc1ccc(C(C)C)cc1.Oc1ccccc1C=NNC1=Nc2ccccc2-c2[nH]c3ccc(Br)cc3c2C1.[Cl-].[Cl][Os+] — IC50 (CH1; cell growth or viability, MTT; 96 h): 1.6 µM
COc1c(C)c(OS(=O)(=O)c2ccccc2)c(C)c(O)c1C(=O)/C=C/c1ccccc1 — IC50 (KKU-M213; cell growth or viability, SRB; 72 h): 23.8 µM
CCC(=O)N1CCN(c2ccc(NC(=O)c3ccc([N+](=O)[O-])o3)cc2Cl)CC1 — IC50 (HCC4017; cell growth or viability, MTS; 96 h): 47 µM
C1=[N+]2CCCC[N+]3=Cc4ccc5[n]4[Au-]23[n]2c1ccc2-c1nc2ccccc2nc1-5.F[P-](F)(F)(F)(F)F — IC50 (SF-268; cell growth): 1.4 µM
C[N+]1(C)CC[NH2+][Pt-2]1([OH])([Cl])([Cl])[O]C(=O)CCC(=O)OCCOC(=O)CCC(=O)[O][Pt-2]1([OH])([Cl])([Cl])[NH2+]CC[N+]1(C)C — IC50 (CH1; cell growth or viability, MTT; 96 h): 6.2 µM

A few entries again:
COc1cc2c(cc1C(C)=O)CCC1C(C)(C)c3nc(C)ncc3C[C@]21C (mixture of isomers) — IC50 (TM3; cell growth or viability, SRB; 24 h): > 100 µM
CN(C)CCN1CCN(c2ccc(Oc3ccc(F)cc3F)c(-c3cn(C)c(=O)c4[nH]ccc34)c2)S1(=O)=O — IC50 (Light II cells; GLI reporter gene, inhibitor; Hedgehog pathway): 0.0719 ± 0.00543 µM
CCCC(CCC)C(=O)[O][Pt]([NH2])([NH2])([Cl])([Cl])[O]C(=O)C(C)c1ccc(CC(C)C)cc1 (stereo not shown) — IC50 (PSN1 3D spheroids): 0.93 ± 0.46 µM
